Results collected from several papers.
Each line is one published result; not all experiments were run side by side. ± gives the spread as reported.
Cell line: RAW264.7

With COc1cc2c(cc1O)[C@]1(O)C(=O)c3c(O)cc4c(c3O[C@@H]1CO2)C=CC(C)(C)O4 the viability was 27% (cell growth or viability, MTT; 25 µg/mL, 24 h).
For CCC(=O)NCc1ccccc1, the viability was 101% (cell growth or viability, MTT; 200 µM, 24 h).
For CC(C)=CCc1cc2c(cc1O)OCc1c-2oc2c(CC=C(C)C)c(O)ccc12, the viability was 97.3 ± 0.3% (MTT; concentration not given).
For COc1cccc(NCc2cn(-c3ccccc3)nc2-c2ccc(OCc3ccccc3)cc2)c1, the viability was 70 ± 2.37% (MTT; 20 µM, 24 h, added: LPS).
CC(C)=CCc1cc(-c2coc3cc(O)c(CC=C(C)C)c(O)c3c2=O)ccc1O has a viability of 151% (cell growth or viability, MTT; 12.5 µg/mL, 24 h).
CC(=O)O[C@@H]1CC[C@@]2(C)C(CC[C@]3(C)C2C(=O)C=C2C4[C@@H](C)[C@H](C)CC[C@]4(C)CC[C@]23C)[C@@]1(C)C(=O)OCC(=O)O[C@@H]1C[C@H](C)CC[C@H]1C(C)C (some centres unmarked) gave a viability of 93% (cell growth or viability, MTT; 25 µM, 24 h).
With COc1c(CC=C(C)C)c(O)cc2c1[C@@H]1Oc3c(ccc(O)c3CC=C(C)C)[C@@H]1CO2 the viability was 2.9 ± 0.6% (MTT; concentration not given).
The viability of COc1ccc(-c2coc3c(CC=C(C)C)c(O)c(CC=C(C)C)c(O)c3c2=O)cc1O is reported as 5.12% (cell growth or viability, MTT; 100 µg/mL, 24 h).
The viability of CC(C)=CCc1cc([C@@H]2CC(=O)c3c(O)cc(O)c(CC=C(C)C)c3O2)cc(CC=C(C)C)c1O is reported as 3.67 ± 0.9% (MTT; concentration not given).
With COc1ccc(/C=N\NC(=O)[C@]2(C)C3CC[C@]4(C)C(C(=O)C=C5C6[C@@H](C)[C@H](C)CC[C@]6(C)CC[C@]54C)[C@@]3(C)CC[C@H]2OC(C)=O)cc1OC (some centres unmarked) the viability was 86% (cell growth or viability, MTT; 25 µM, 24 h).
For COc1ccc2c(c1CC=C(C)C)O[C@H]1c3cc4c(cc3OC[C@@]21O)OC(C)(C)C=C4, the viability was 95.1 ± 0.7% (MTT; concentration not given).
Brc1ccc(NCc2cn(-c3ccccc3)nc2-c2ccc(OCc3ccccc3)cc2)cc1 has a viability of 41 ± 2.84% (MTT; 20 µM, 24 h, added: LPS).
With COc1ccc2c3c(oc2c1CC=C(C)C)-c1cc(CC=C(C)C)c(O)cc1OC3 the viability was 56.1 ± 2.4% (MTT; concentration not given).
CC(C)=CCc1c(O)c(CC=C(C)C)c2occ(-c3ccc(O)c(O)c3)c(=O)c2c1O gave a viability of 34.5% (cell growth or viability, MTT; 25 µg/mL, 24 h).
For CC(=O)O[C@@H]1CC[C@@]2(C)C(CC[C@]3(C)C2C(=O)C=C2C4[C@@H](C)[C@H](C)CC[C@]4(C)CC[C@]23C)[C@@]1(C)C(=O)N/N=C\C=Cc1ccccc1 (some centres unmarked), the viability was 102% (cell growth or viability, MTT; 25 µM, 24 h).
For CC(C)=CCc1cc([C@@H]2CC(=O)c3ccc(O)c(CC=C(C)C)c3O2)c(O)c(CC=C(C)C)c1O, the viability was 12.1 ± 1.1% (MTT; concentration not given).
CC(C)[C@@H]1CC[C@@H](C)C[C@H]1O has a viability of 95% (cell growth or viability, MTT; 25 µM, 24 h).
For Cc1ccc(CN2C(=O)/C(=N\c3ccc(Cl)cc3Br)c3ccccc32)cc1, viability read “no effect” (up to 5 µM, 48 h).
The viability of CC(=O)O[C@@H]1CC[C@@]2(C)C(CC[C@]3(C)C2C(=O)C=C2C4[C@@H](C)[C@H](C)CC[C@]4(C)CC[C@]23C)[C@@]1(C)C(=O)OCc1cn(CC(=O)OC2CC(C)CCC2C(C)C)nn1 (some centres unmarked) is reported as 89% (cell growth or viability, MTT; 25 µM, 24 h).
With Fc1ccccc1NCc1cn(-c2ccccc2)nc1-c1ccc(OCc2ccccc2)cc1 the viability was 65 ± 2.45% (MTT; 20 µM, 24 h, added: LPS).
COc1cccc(/C=N\NC(=O)[C@]2(C)C3CC[C@]4(C)C(C(=O)C=C5C6[C@@H](C)[C@H](C)CC[C@]6(C)CC[C@]54C)[C@@]3(C)CC[C@H]2OC(C)=O)c1 (some centres unmarked) gave a viability of 94% (cell growth or viability, MTT; 25 µM, 24 h).
With CC(C)=CCc1c2c(c(O)c3c(=O)c(-c4ccc(O)cc4)coc13)CC(C(C)(C)O)O2 (centres unmarked) the viability was 5.62% (cell growth or viability, MTT; 50 µg/mL, 24 h).
For C=CCc1ccc(OC(=O)COC(=O)[C@]2(C)C3CC[C@]4(C)C(C(=O)C=C5C6[C@@H](C)[C@H](C)CC[C@]6(C)CC[C@]54C)[C@@]3(C)CC[C@H]2OC(C)=O)c(OC)c1 (some centres unmarked), the viability was 96% (cell growth or viability, MTT; 25 µM, 24 h).
Cc1ccc(NCc2cn(-c3ccc(S(N)(=O)=O)cc3)nc2-c2ccc(OCc3ccccc3)cc2)cc1 gave a viability of > 90% (MTT; 20 µM, 24 h, 10% FBS, added: LPS).
With COc1cc(C=O)ccc1OC(=O)COC(=O)[C@]1(C)C2CC[C@]3(C)C(C(=O)C=C4C5[C@@H](C)[C@H](C)CC[C@]5(C)CC[C@]43C)[C@@]2(C)CC[C@H]1OC(C)=O (some centres unmarked) the viability was 84% (cell growth or viability, MTT; 25 µM, 24 h).
The viability of CC(C)=CCc1c(O)ccc2c1O[C@H]1c3cc4c(cc3OC[C@@H]21)OC(C)(C)C=C4 is reported as 3.4 ± 0.1% (MTT; concentration not given).

Repeated from above:
For C=CCc1ccc(OC(=O)COC(=O)[C@]2(C)C3CC[C@]4(C)C(C(=O)C=C5C6[C@@H](C)[C@H](C)CC[C@]6(C)CC[C@]54C)[C@@]3(C)CC[C@H]2OC(C)=O)c(OC)c1 (some centres unmarked), the viability was 96% (cell growth or viability, MTT; 25 µM, 24 h).
Cc1ccc(NCc2cn(-c3ccc(S(N)(=O)=O)cc3)nc2-c2ccc(OCc3ccccc3)cc2)cc1 gave a viability of > 90% (MTT; 20 µM, 24 h, 10% FBS, added: LPS).
